Published values of several laboratories.
Parts stem from different laboratories: compare values within a part only. Values joined by “and” are separate records of one study, mostly repeats; a detail may differ. Numbers after ± are the reported error.
Sequence of UniProt Q99640 (whole entry, looked up): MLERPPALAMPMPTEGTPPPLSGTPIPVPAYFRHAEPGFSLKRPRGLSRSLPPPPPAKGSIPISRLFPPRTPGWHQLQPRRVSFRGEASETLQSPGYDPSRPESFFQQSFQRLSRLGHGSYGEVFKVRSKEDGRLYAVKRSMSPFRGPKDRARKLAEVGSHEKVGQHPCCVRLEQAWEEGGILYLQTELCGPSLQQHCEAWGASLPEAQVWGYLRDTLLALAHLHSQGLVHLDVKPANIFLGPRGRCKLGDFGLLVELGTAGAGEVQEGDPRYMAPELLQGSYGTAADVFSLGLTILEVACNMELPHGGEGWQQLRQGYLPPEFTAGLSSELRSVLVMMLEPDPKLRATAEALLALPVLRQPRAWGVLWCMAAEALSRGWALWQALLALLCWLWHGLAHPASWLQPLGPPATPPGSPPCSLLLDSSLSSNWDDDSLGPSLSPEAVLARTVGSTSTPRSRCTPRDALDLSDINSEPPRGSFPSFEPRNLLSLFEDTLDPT

Study 1
Compound: C[C@@H]1CN(c2ccc(-c3cc(C(=O)NCCOCCOCCOCCOCCOCCOCCNC(=O)/C=C/c4[nH]cc(C(=O)N[C@@H](CC(N)=O)c5ccc(F)c(Cl)c5)c4-c4ccc(Cl)cc4F)ccc3F)cc2NC(=O)c2ccc(F)cc2C(F)(F)F)C[C@H](C)N1C
Effect on: thermal unfolding
Technique: differential scanning fluorimetry
Tested at: 5.5 µM
Direction: higher = more unfolded
Quantity: SYPRO Orange fluorescence
DCAF1: DDB1- and CUL4-associated factor 1 (DCAF1, Homo sapiens, UniProt Q9Y4B6)
Sequence of UniProt Q9Y4B6 (whole entry, looked up): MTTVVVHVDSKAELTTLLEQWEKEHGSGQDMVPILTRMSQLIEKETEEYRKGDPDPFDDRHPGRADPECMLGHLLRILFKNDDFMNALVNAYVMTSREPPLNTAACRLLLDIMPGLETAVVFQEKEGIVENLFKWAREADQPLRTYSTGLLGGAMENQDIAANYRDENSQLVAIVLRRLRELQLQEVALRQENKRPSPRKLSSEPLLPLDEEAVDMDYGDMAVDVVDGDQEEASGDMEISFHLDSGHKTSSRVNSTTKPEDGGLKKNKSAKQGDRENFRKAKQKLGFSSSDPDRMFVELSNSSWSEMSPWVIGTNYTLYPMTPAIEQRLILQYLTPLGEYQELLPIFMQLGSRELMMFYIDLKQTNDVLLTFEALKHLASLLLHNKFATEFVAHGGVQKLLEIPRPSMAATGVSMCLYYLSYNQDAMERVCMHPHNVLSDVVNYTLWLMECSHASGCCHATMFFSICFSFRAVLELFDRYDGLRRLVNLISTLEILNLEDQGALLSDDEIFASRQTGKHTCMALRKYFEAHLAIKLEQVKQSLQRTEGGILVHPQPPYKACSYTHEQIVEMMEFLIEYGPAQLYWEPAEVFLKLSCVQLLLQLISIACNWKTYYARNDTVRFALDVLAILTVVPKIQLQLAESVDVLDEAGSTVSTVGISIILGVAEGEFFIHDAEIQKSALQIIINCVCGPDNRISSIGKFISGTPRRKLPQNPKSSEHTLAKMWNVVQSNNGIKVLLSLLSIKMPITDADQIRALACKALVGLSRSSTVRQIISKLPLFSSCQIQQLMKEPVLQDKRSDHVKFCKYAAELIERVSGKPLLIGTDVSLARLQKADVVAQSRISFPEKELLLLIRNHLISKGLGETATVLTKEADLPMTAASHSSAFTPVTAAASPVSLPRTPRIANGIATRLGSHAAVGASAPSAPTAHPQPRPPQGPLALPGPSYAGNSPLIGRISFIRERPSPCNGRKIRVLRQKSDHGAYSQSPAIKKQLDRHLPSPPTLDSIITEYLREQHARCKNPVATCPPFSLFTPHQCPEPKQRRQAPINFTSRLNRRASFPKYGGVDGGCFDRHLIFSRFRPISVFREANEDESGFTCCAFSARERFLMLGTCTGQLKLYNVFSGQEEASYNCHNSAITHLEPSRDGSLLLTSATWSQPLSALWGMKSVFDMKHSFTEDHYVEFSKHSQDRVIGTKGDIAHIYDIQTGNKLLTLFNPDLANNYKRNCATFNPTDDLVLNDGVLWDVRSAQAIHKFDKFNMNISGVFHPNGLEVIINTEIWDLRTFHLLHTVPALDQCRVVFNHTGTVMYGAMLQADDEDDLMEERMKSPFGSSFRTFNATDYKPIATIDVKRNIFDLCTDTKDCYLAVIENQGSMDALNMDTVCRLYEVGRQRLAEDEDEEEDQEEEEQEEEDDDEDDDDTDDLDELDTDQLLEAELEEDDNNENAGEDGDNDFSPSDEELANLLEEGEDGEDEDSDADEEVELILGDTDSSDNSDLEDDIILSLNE
WDR5: WD repeat-containing protein 5 (WDR5, Homo sapiens, UniProt P61964)
DCAF1; 78.41 °C: 41000 a.u.
DCAF1; 39.6 °C: 11200 a.u.
DCAF1; 37.6 °C: 10900 a.u.
WDR5; 38.4 °C: 13900 a.u.
WDR5; 78.81 °C: 62400 a.u.
DCAF1; 28 °C: 7970 a.u.
WDR5; 28.8 °C: 13500 a.u.

Other studies, line by line
SLC6A19: Sodium-dependent neutral amino acid transporter B(0)AT1 (SLC6A19, Homo sapiens, UniProt Q695T7)
Sequence of UniProt Q695T7 (whole entry, looked up): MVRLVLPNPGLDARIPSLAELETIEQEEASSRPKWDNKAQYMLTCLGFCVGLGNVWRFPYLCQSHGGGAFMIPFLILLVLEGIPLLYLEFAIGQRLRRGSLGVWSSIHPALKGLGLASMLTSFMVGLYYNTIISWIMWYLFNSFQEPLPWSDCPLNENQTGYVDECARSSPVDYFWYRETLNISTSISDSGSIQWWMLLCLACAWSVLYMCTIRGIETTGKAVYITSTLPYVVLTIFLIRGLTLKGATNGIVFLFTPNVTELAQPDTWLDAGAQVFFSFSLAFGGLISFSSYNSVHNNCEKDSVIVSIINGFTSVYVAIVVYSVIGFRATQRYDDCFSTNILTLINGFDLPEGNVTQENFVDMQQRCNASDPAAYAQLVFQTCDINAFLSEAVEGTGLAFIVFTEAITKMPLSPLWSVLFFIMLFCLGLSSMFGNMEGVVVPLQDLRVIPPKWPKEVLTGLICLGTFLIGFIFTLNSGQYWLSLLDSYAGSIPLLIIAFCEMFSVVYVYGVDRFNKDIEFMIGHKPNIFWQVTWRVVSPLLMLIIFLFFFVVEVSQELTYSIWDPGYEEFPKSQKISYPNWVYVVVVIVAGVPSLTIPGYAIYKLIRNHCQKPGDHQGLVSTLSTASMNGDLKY
VHL with Elongin B/C: von Hippel-Lindau disease tumor suppressor, with Elongin B/C (VHL, Homo sapiens, UniProt P40337)
CC(C)NC(=O)COc1ccc(I)cc1
remaining transport activity (SLC6A19; inhibitor, FLIPR membrane potential; CHO-BC cells; 30 µM, unit not given; relative to: no inhibitor): 0.249

Cc1ccc(O)c(C)c1-c1cnc2[nH]c(-c3cnc(N4CCC5(CC4)CC(N4CCN(c6ccc(NC7CCC(=O)NC7=O)cc6F)CC4)CO5)nc3)cc2c1C#N (stereo not shown)
IC50 (HCC1599; CDK1 phosphorylation, refers to: CDK1 phospho-Thr14): 174 nM

Cc1cc(NCC(=O)NC(C)C)ccc1Br
remaining transport activity (SLC6A19; inhibitor, L-[14C]leucine uptake; CHO-BC cells; 0.01 µM, 6 min, 37 °C, unit not given, added: GPNA 3 mM, JPH203 3 µM; relative to: uninhibited cells): 0.941

Cc1ccc(O)c(C)c1-c1cnc2[nH]c(-c3cnc(N4CCC(CN5CCN(c6cc7c(cc6F)c(N6CCC(=O)NC6=O)nn7C)CC5)CC4)nc3)cc2c1C#N
phospho-CDK1 (Thr14) level (HCC1569; CDK1 Thr14 phosphorylation, in-cell western; 1000.00 nM; lower = stronger inhibition): 118 a.u.

Cc1ncsc1-c1ccc(C(CO)NC(=O)C2CC(O)CN2C(=O)C(C(C)C)n2cc(-c3ccc(COc4c(-c5c(C)c(F)cc6[nH]ncc56)c(C5CC5)cc5c(N6CC7CC6CN7)nc(OC6CCOCC6)nc45)cc3)nn2)cc1 (stereo not shown)
tumour volume (KP-4 xenograft, mouse; 30 mg/kg once weekly, day 11): 315 mm3 and 303 mm3 and 326 mm3 and 396 mm3 and 426 mm3

Cc1ccc(O)c(C)c1-c1cnc2[nH]c(-c3cnc(N4CCC(CN5CCN(c6cc7c(cc6F)n(C6CCC(=O)NC6=O)c(=O)n7C)CC5)CC4)nc3)cc2c1C#N (stereo not shown)
degradation (PKMYT1 (Homo sapiens, UniProt Q99640); degrader, automated immunoblot; HCC1569; 0.10 nM): 49.5%

Cc1ncsc1-c1ccc(C(CO)NC(=O)C2CC(O)CN2C(=O)C(NC(=O)c2ccc(COc3c(-c4c(C)c(F)cc5[nH]ncc45)c(C4CC4)cc4c(N5CC6CC5CN6)nc(OC5CCOCC5)nc34)cc2)C(C)C)cc1 (stereo not shown)
phospho-ERK1/2 level (AsPC-1; in-cell ELISA; 1 µM, individual replicates): 3.62% and 6.85% and 11.4% and 4.61% and 12.6% and 5.12%

Cc1ncc(-c2cc3c(C#N)c(-c4c(C)ccc(O)c4C)cnc3[nH]2)cn1
Papp A→B (Caco-2; 2 µM, 2 h, pH 7.4): 5.46 ×10⁻⁶ cm/s

CC(C)NC(=O)COc1ccc(Cl)cc1
remaining transport activity (SLC6A19; inhibitor, L-[14C]leucine uptake; CHO-BC cells; 10 µM, 6 min, unit not given, added: GPNA 3 mM, JPH203 3 µM; relative to: uninhibited cells): 0.626

Cc1ncsc1-c1ccc(C2(NC(=O)C3CC(O)CN3C(=O)C(NC(=O)c3ccc(COc4c(-c5c(C)c(F)cc6[nH]ncc56)c(C5CC5)cc5c(N6CC7CC6CN7)nc(OC6CCOCC6)nc45)cc3)C(C)(C)C)CC2)cc1 (stereo not shown)
Kd (VHL with Elongin B/C; binding, SPR, single-cycle; binary, geometric mean, added: immobilized VCB complex): 1450 nM

Cc1cc(OCC(=O)NC(C)C)ccc1Cl
activity (SLC6A19; inhibitor, FLIPR membrane potential; CHO-BC cells; 30 µM, added: L-leucine 1.5 mM; relative to: cinromide): 8 ± 5%

Cc1ncsc1-c1ccc(C2(NC(=O)C3CC(O)CN3C(=O)C(NC(=O)c3ccc(COc4c(-c5c(C)c(F)cc6[nH]ncc56)c(C5CC5)cc5c(N6CC7CC6CN7)nc(OC6CCOCC6)nc45)cc3)C(C)C)CC2)cc1 (stereo not shown)
koff (VHL with Elongin B/C; SPR, single-cycle; immobilized VCB complex; binary): 0.0526 s⁻¹ and 0.0411 s⁻¹ and 0.0788 s⁻¹
